Experimental data pooled from the literature.
Lines come from different studies, so protocols differ. ± marks the error that the study gave.

SMILES	cell line	assay	conditions	EC50 [µM]
COc1nc(Nc2nc(O)c3ccccc3n2)nc2ccc(C)cc12	LDR	silenced GFP reporter derepression, microscopy	overnight	8
NC(COc1cc(C(F)(F)F)cc(C(F)(F)F)c1)c1ccccc1 (stereo not drawn)	normal hiPSC cardiomyocytes	APD75 prolongation, kinetic imaging cytometry	–	> 200
FC(F)(F)c1ccnc(-c2cc(C(F)(F)F)ccn2)c1.FC(F)(F)c1ccnc(-c2cc(C(F)(F)F)ccn2)c1.[Cl-].[Cl-].[Ru+2].c1csc(-c2nc3c4cccnc4c4ncccc4c3[nH]2)c1	SK-MEL-28	cell viability	100 J/cm2 light, normoxia, together with: visible light 400-700 nm	22
Cc1ncsc1-c1ccc(CNC(=O)[C@@H]2C[C@@H](O)CN2C(=O)[C@@H](NC(=O)COCCOCCOCCNC(=O)C[C@@H]2N=C(c3ccc(Cl)cc3)c3c(sc(C)c3C)-n3c(C)nnc32)C(C)(C)C)cc1	22Rv1	caspase-3/7 activation	24 h	0.15
O=C1CC(=O)N(CCc2ccccc2)C(=O)N1CCc1ccccc1	PC12 SOD1 G93A-YFP	protection from cytotoxicity	–	1.05
C#CC[C@@H](/C=C/S(C)(=O)=O)NC(=O)[C@H](COC)NC(=O)[C@H](CCc1ccccc1)NC(=O)CN1CCOCC1	HFF, non-confluent	cell viability, CellTiter-Blue	72 h	8.54 ± 2
C=CC(=O)Nc1cc(-c2nn(C3CCN(CCNC(=O)[C@H](C)CCC45CC6CC(CC(C6)C4)C5)CC3)c3ncnc(N)c23)ccc1Oc1ccccc1	HER3-dependent cell lines	cell death	–	0.8 to 1.4
COC[C@H](NC(=O)[C@H](CCc1ccccc1)NC(=O)CN1CCOCC1)C(=O)N[C@H](/C=C/S(C)(=O)=O)CC(C)C	HFF, non-confluent	cell viability, CellTiter-Blue	72 h	13.4 ± 4.41
Cc1ccc(CC(=O)c2c(O)c(O)cc3c(O)c(-c4c(C)cc5c(C(=O)Cc6ccc(C)cc6)c(O)c(O)cc5c4O)c(C)cc23)cc1	H1299	cell viability, ATP luminescence	72 h	1.7
COC[C@H](NC(=O)[C@H](CCc1ccccc1)NC(=O)c1cnc(C)s1)C(=O)N[C@H](/C=C/S(C)(=O)=O)Cc1cccs1	HFF, non-confluent	cell viability, CellTiter-Blue	72 h	2.22 ± 0.077
COc1ccc2c(C)nc(Nc3nc(O)cc(-c4ccccc4)n3)nc2c1	LDR	silenced GFP reporter derepression, microscopy	overnight	6
C(=C/c1ccccc1)/c1ccccc1	Jurkat	caspase-3 activity, flow cytometry	24 h	31
Cc1ccc(/C=N/N=C(\S)Nc2cccc(S(=O)(=O)N(C)C)c2)o1	LDR	silenced GFP reporter derepression, microscopy	overnight	14
CC(C)C[C@@H](/C=C/S(C)(=O)=O)NC(=O)[C@H](CC(C)C)NC(=O)[C@H](Cc1cccc2ccccc12)NC(=O)CN1CCOCC1	HFF, non-confluent	cell viability, CellTiter-Blue	72 h	1.8 ± 0.39
COc1ccc(NC(=O)CSc2nc3c(oc4ccccc43)c(=O)n2Cc2ccco2)cc1Cl	LDR	silenced GFP reporter derepression, microscopy	overnight	13
COC[C@H](NC(=O)[C@H](CC1CCCCC1)NC(=O)CN1CCOCC1)C(=O)N[C@H](/C=C/S(C)(=O)=O)CC(C)C	HFF, non-confluent	cell viability, CellTiter-Blue	72 h	78.4 ± 18
N=C(S)N/N=C/c1ncc(C(F)(F)F)cc1Cl	LDR	silenced GFP reporter derepression, microscopy	overnight	8
CC1=C(C2=C(C)C(=O)c3c(cc(O)c(O)c3Cc3ccccc3)C2=O)C(=O)c2cc(O)c(O)c(Cc3ccccc3)c2C1=O (racemic)	BP3 human lymphoma	apoptosis, annexin V-PI staining	24 h	4.87 ± 0.5
CC[C@@H](/C=C/S(C)(=O)=O)NC(=O)[C@H](COC)NC(=O)[C@H](CCc1ccccc1)NC(=O)CN1CCOCC1	HFF, non-confluent	cell viability, CellTiter-Blue	1 h	> 250
Cc1ccc(C(C)C)c(OCc2ccc(C(=O)N/N=C/c3cccc(O)c3O)cc2)c1	LDR	silenced GFP reporter derepression, microscopy	overnight	4
NC(COc1ccccc1C(F)(F)F)c1ccccc1 (stereo not drawn)	normal hiPSC cardiomyocytes	APD75 prolongation, kinetic imaging cytometry	–	> 200
CC(C)C[C@@H](/C=C/S(C)(=O)=O)NC(=O)[C@H](CC(C)C)NC(=O)[C@H](CCc1ccccc1)NC(=O)CN1CCOCC1	HFF, non-confluent	cell viability, CellTiter-Blue	72 h	1.88 ± 0.46
COc1cccc(/C=N/Nc2nc(Nc3ccccc3)nc(-n3nc(C)cc3C)n2)c1O	LDR	silenced GFP reporter derepression, microscopy	overnight	4
CCCCCCCCC1(CCCCCCCC)c2cc(-c3cc4[n+]5c(c3)-c3cccc[n+]3[Ir-3]536([n+]5ccccc5-c5cc(-c7ccccc7)cc([n+]53)-c3cccc[n+]36)[n+]3ccccc3-4)ccc2-c2ccc(-c3cc4[n+]5c(c3)-c3cccc[n+]3[Ir-3]536([n+]5ccccc5-c5cc(-c7ccccc7)cc([n+]53)-c3cccc[n+]36)[n+]3ccccc3-4)cc21.F[P-](F)(F)(F)(F)F.F[P-](F)(F)(F)(F)F.F[P-](F)(F)(F)(F)F.F[P-](F)(F)(F)(F)F.F[P-](F)(F)(F)(F)F.F[P-](F)(F)(F)(F)F	SK-MEL-28	cell viability, resazurin	16 h plus 48 h, dark	82.6 ± 1.5

Repeated from above:
SMILES	cell line	assay	conditions	EC50 [µM]
Cc1ccc(CC(=O)c2c(O)c(O)cc3c(O)c(-c4c(C)cc5c(C(=O)Cc6ccc(C)cc6)c(O)c(O)cc5c4O)c(C)cc23)cc1	H1299	cell viability, ATP luminescence	72 h	1.7
N=C(S)N/N=C/c1ncc(C(F)(F)F)cc1Cl	LDR	silenced GFP reporter derepression, microscopy	overnight	8
